Assay results of several laboratories.
Parts stem from different laboratories: compare values within a part only. Changes are numbered by the printed parent chain.

Set 1
Target: Interferon regulatory factor 3, full length, phosphomimetic (IRF3, Homo sapiens, UniProt Q14653, residues 1-427, S386D/S396D/S398D/S402D/T404D/S405D)
Technique: protein-binding microarray
Form: double-stranded DNA, one strand shown
Matrix: in vitro
Tested at: 2540 nM top
Notes: 60-bp whole probe
Added: salmon DNA 0.4 mg/ml
Relative to: random background probes
Reading: higher = stronger binding
All sequences stand within: GCCTAGCAC … GTCTTGATTCGCTTGACGCTGCTG
Construct (chain): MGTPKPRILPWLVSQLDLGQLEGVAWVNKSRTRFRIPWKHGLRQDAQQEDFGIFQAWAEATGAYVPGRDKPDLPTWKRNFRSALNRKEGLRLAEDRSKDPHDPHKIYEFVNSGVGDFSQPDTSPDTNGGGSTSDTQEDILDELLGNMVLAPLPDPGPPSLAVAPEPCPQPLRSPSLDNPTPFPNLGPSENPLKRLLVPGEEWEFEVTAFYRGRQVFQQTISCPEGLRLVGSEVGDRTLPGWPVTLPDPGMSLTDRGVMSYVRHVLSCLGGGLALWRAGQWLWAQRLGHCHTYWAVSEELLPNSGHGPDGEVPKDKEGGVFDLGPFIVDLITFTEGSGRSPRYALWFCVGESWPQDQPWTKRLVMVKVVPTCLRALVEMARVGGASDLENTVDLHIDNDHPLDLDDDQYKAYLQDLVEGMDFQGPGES
Sequence	fitted relative affinity [z-score]
TCAAATTTATAAATAAAACTGTGCTAG	0.00663
TTCAGTTTCACTGCTGCCCTGTGCTAG	2.85
GACGGGTTCCTTTTCCTGACGTGCTAG	5.29
GACGATCTGGGGACTGGAGACGTGCTA	-0.454
TCAAGAAAAAGAAAAAAAACTGTGCTA	-0.463
TTAGGTTTCGGACCGGGTTAGTGCTAG	3.22
TTAGAACTGAGTATCGATGAGTGCTAG	-0.199
TTAGATATCGGTCTCGATTAGTGCTAG	1.63
TCAATTCTCTTCTTGCAACTGTGCTAG	1.71
TTGGGACTGCTACTGCTTTAGTGCTAG	-1.22
TTAGGTTTCGACTTTCGGGTAGTGCTA	3.52
GACGGTTTCGGTTCCAGGACGTGCTAG	9.24
GAAGGTATCGGTATCGGGACGTGCTAG	4.36

Set 2
Molecule: PhoQ, residues 284 288 289 292 302 303 NSMLDC
Technique: Sort-seq
Measured: YFP reporter
Matrix: E. coli
Notes: PhoQ-PhoP variant library
Added: 10 µM Mg2+
Relative to: high Mg2+ state
Reading: higher = stronger signaling
target	fold induction
PhoP, residues 12 14 15 18 19 HHYTI (Escherichia coli, UniProt P23836)	1.46
PhoP, residues 12 14 15 18 19 AYFRS (Escherichia coli, UniProt P23836)	28.5
PhoP, residues 12 14 15 18 19 SFCSL (Escherichia coli, UniProt P23836)	12.3

Set 3
Target: RNA binding protein fox-1 homolog 2, RRM domain, GST-SBP tag (RBFOX2, Homo sapiens, UniProt O43251-10, residues 100-194)
Technique: RNA Bind-n-Seq
Form: RNA
Matrix: in vitro
Tested at: 365 nM
Notes: natural RNA segment, single round, ends assumed
Relative to: no-protein control
Reading: higher = stronger binding
All sequences stand within: GGGAGUUCUACAGUCCGACGAUC … UGGAAUUCUCGGGUGCCAA
Target sequence (chain): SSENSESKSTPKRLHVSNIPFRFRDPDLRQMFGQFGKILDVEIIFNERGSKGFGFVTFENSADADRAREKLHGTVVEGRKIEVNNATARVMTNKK
Sequence	RBNS enrichment (R)
CAGGCUGCUGAGGAGCAGAGGCCAGACCAGGGCCGAUCUGGGUGUCCUGACCCUCAGCUGGCCCUGCCCAGCCACCCUGGACGUGACCGUAUCCCUCUGCCACACCCCAG	0.16
GACUCUGUAUAAAGAAAGUGCUGGACUUUUCCUGAAAGCUGCAAAAAAAUGGUUUAGAUAUAUUUAUAAUAAACUGACUUAAGAGUUUUCUAUAAGAAGAAAAUUAAGAC	0.789
CUGUGUUACUCAUGUACAUUGGUCUUUCUACAUAGUUAUUCUAUCACUGGCAAUAUUUGUUCUGGUUUAGUGUUCUGUAUUUUAAGGUGUACGUAUCAUUUCUAAUUUUA	0.492
GCCCAACAGUAUAGCUGGGUGAACAUCUCUAGCUAGCAUAUGCUAUAUAUGUCCUCACAUACCUCUGCUGGAAGGACAGAGCGCUGUCUUAUGACUGGUAAGAGGGAGUG	0.387
CCACCCAUUUGUUGGCUUUUUUGUUUUUUAAUGUCAGAUCUGUUGAGUUGGUUUUUUUGGUUUUGGUUUUUGUUUUUGUUUUUGUUUUUUACUGAGAAAGGAAGGGCCAA	1.56
GAUUUUUGAAAAGCCUGAAUAAAAUUGGAAAGACUGGAAAGUUAGGAGAACUGACUAGCUAAACUGCUACAGUAUGCAAUUUCUAUUACAAUUGGUAUUACAGGGGGGAA	1.16
AUGAACGAUAGAUCACAUCAGAACUCCUGUGGGGAGGAAACCUUAUAAAUUAAACACAUGGCCCCCUUAGAGACCACAGGUGAUGUCUGUCUCCAUCCUUCCCUCUCCUU	1.46
UGGUUGAACAAGGGAAUCACAAGAAAACGAAAAUGCAAAAACUGAACUUCGGGGGUCGUUCUGUGCCUUCCAGCAUCUUGUACAGCAAAUCCUGACUCGUGUCUUUUUAC	1.21

Set 4
Target: CCNF, cyclin fold, Cln2 fusion (human)
Technique: yeast growth competition, sequencing
Matrix: yeast
Notes: strong parent motif
Relative to: not given
Reading: higher = stronger binding
Starting sequence: E2F1 docking peptide (human); PPVKRRLDLETDH
Variant	normalised enrichment score
P2C	5.89
R5Q	0.362
T11P	8.93
V3P	5.48
V3A	7.01
D12P	8.49
H13W	6.94
T11I	6.74
L7G	0.375
E10R	6.21
D12T	6.18
T11Q	5.49
D12R	5.2
V3T	5.28

A few entries again (set 4):
Variant	normalised enrichment score
T11Q	5.49
V3P	5.48
D12T	6.18
D12R	5.2
